Measured values pooled from the literature.
Parts stem from different laboratories: compare values within a part only.
Sequence of UniProt P42336 (whole entry, unmodified, looked up): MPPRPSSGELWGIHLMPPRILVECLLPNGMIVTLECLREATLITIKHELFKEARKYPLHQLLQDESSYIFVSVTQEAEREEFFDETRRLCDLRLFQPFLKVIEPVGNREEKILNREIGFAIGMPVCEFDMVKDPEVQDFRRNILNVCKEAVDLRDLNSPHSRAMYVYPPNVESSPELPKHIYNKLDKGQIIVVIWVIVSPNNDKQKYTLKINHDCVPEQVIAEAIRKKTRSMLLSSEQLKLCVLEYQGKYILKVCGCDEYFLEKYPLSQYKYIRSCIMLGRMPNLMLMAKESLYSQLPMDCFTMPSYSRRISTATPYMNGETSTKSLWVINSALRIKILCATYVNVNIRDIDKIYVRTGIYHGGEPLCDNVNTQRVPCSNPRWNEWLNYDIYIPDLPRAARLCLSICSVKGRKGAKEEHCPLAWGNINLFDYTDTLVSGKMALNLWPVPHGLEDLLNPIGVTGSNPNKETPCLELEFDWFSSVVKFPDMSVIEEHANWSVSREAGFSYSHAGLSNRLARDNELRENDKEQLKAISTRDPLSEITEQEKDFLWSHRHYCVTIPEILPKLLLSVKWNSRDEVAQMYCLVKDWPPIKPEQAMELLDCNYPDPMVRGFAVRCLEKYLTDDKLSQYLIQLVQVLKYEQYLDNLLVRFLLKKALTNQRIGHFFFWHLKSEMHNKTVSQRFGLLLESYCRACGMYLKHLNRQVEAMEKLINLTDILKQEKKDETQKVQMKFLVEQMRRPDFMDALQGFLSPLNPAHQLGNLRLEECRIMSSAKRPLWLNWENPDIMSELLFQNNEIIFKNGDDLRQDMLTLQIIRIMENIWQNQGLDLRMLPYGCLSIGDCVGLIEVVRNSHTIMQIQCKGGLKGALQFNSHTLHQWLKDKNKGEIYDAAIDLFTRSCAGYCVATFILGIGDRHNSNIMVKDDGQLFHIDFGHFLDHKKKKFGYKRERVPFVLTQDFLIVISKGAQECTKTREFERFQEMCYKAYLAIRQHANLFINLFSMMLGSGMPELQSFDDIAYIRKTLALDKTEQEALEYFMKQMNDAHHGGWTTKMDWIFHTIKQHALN
Sequence of UniProt P49137 (whole entry, looked up): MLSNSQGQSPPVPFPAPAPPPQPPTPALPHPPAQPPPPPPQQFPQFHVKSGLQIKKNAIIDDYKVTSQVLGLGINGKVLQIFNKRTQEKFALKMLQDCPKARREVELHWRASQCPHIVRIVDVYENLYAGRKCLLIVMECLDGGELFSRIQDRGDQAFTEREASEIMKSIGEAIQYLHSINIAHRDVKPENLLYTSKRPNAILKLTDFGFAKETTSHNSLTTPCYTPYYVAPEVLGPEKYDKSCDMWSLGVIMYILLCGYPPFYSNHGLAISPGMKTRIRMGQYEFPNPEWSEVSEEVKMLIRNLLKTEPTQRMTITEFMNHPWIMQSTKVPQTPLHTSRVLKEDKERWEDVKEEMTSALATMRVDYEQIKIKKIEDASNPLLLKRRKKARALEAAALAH
Sequence of UniProt Q6PHR2 (whole entry, looked up): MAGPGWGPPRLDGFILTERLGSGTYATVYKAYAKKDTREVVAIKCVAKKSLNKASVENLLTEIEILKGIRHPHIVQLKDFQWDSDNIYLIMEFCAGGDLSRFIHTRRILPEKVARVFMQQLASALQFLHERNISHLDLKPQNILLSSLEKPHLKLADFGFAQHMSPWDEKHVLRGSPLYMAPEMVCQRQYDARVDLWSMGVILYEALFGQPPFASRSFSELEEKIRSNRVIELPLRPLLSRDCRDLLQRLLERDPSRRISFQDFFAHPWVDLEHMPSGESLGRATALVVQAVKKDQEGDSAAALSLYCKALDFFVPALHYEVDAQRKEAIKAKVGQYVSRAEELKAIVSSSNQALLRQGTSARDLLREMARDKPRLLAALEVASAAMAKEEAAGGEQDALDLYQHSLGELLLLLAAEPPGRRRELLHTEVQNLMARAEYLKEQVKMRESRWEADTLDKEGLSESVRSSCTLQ
Sequence of UniProt Q13873 (whole entry, looked up): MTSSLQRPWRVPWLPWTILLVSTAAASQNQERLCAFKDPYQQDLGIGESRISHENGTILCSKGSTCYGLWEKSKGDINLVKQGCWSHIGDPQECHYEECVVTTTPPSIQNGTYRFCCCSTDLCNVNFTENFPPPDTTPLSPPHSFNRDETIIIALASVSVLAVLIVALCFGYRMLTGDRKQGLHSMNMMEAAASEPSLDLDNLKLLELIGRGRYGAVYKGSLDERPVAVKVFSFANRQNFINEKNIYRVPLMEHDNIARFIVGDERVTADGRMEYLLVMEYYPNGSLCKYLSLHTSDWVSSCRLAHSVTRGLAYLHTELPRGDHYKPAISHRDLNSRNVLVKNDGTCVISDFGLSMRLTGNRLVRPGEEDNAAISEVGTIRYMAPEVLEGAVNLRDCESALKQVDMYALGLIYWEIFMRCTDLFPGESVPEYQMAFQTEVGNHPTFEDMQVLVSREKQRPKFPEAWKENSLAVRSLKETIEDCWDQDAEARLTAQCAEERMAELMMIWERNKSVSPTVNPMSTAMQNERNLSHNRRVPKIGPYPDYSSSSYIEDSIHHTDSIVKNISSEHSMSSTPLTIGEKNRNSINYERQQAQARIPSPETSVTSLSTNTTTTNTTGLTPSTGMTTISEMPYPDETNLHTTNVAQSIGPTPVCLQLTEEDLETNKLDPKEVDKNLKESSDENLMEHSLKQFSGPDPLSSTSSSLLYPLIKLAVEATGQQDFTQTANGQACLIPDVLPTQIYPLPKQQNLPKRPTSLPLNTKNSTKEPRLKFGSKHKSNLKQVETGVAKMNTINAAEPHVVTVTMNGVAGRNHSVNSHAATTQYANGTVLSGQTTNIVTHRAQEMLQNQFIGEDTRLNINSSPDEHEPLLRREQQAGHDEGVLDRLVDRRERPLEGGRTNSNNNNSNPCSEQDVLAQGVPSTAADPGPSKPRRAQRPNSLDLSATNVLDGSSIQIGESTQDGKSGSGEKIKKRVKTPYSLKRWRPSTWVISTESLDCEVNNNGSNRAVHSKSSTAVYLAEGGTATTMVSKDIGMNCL
Sequence of UniProt P36896 (whole entry, looked up): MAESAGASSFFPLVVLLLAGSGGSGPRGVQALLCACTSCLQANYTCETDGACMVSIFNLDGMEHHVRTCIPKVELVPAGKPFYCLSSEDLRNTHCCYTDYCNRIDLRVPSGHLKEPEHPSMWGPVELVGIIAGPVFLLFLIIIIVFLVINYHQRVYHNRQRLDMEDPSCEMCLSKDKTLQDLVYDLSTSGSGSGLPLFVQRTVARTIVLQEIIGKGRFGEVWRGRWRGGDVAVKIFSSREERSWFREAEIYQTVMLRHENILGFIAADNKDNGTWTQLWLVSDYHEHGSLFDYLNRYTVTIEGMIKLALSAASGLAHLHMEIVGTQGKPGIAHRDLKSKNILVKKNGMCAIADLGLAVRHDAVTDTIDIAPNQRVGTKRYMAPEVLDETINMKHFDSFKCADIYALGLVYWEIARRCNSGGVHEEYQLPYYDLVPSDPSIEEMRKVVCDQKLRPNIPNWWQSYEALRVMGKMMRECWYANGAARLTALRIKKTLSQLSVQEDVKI
Sequence of UniProt Q99759 (whole entry, looked up): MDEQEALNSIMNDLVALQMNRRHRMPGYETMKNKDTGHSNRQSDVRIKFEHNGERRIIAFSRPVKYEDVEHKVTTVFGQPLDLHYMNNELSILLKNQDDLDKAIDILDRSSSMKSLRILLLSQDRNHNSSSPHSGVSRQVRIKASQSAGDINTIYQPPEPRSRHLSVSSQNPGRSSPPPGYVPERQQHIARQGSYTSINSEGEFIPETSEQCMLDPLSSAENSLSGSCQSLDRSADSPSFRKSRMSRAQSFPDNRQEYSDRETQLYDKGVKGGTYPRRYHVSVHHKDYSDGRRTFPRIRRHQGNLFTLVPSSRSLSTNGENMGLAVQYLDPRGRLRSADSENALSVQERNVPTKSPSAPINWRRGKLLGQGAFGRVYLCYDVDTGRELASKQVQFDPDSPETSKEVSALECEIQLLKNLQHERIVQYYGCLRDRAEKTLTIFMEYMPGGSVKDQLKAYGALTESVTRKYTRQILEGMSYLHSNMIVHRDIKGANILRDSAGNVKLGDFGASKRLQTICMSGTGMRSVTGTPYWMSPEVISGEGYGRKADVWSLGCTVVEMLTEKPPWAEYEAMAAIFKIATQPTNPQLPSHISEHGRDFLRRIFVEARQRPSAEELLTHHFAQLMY
Sequence of UniProt P42685 (whole entry, looked up): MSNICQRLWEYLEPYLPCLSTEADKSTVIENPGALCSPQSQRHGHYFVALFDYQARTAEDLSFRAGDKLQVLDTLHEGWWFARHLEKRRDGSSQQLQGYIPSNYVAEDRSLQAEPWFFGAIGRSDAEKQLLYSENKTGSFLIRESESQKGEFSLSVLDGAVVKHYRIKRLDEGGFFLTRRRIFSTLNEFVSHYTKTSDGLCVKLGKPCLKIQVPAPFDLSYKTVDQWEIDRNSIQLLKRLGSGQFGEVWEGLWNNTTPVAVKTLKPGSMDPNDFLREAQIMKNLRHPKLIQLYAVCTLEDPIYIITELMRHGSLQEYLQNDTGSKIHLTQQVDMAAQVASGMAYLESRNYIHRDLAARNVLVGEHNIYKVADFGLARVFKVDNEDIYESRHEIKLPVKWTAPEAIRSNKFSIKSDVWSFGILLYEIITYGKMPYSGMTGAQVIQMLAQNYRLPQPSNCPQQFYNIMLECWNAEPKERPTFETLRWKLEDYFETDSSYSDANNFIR
Sequence of UniProt P49841 (whole entry, looked up): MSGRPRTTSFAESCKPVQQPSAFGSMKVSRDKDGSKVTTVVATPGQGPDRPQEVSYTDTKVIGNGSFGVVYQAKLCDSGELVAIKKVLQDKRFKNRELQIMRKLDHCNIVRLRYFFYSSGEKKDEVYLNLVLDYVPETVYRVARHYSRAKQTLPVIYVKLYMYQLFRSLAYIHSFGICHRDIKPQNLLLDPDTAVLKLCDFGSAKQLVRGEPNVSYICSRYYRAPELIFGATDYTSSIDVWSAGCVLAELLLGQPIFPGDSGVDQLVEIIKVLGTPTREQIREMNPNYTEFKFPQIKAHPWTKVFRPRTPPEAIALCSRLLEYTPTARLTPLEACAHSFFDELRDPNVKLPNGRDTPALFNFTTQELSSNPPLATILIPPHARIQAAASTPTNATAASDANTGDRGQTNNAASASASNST

Series 1 — read-out: cell-free assay; method: competition with immobilised ligand; tested at: 1 µM; quantity: remaining binding
Compound: CNC(=O)Nc1ccc2c(c1)[C@@]1(CC2)OC(=O)N(CC(=O)N(Cc2ccc(F)cc2)[C@@H](C)C(F)(F)F)C1=O
target = Mitogen-activated protein kinase kinase kinase 3 (MAP3K3, Homo sapiens, UniProt Q99759); value = 75%
target = Serine/threonine-protein kinase PLK1 (PLK1, Homo sapiens, UniProt P53350); value = 82%
target = Phosphatidylinositol 4,5-bisphosphate 3-kinase catalytic subunit alpha isoform (PIK3CA, Homo sapiens, UniProt P42336, Q546K); value = 81%
target = Receptor-type tyrosine-protein kinase FLT3 (FLT3, Homo sapiens, UniProt P36888, D835V/ITD); value = 87%
target = Bone morphogenetic protein receptor type-2 (BMPR2, Homo sapiens, UniProt Q13873); value = 100%
target = Epidermal growth factor receptor (EGFR, Homo sapiens, UniProt P00533, T790M); value = 73%

Series 2 — SMILES: CCC(=O)Nc1ccc2ncnc(Nc3cccc(Br)c3)c2c1; read-out: enzyme activity; action: inhibitor; tested at: 0.5 µM; baseline: control; quantity: remaining activity
target = MAP kinase-activated protein kinase 2 (MAPKAPK2, Homo sapiens, UniProt P49137); value = 87.1%
target = Casein kinase I isoform gamma-2 (CSNK1G2, Homo sapiens, UniProt P78368); value = 98.1%
target = Serine/threonine-protein kinase ULK2 (ULK2, Homo sapiens, UniProt Q8IYT8); value = 118%
target = Fibroblast growth factor receptor 1 (FGFR1, Homo sapiens, UniProt P11362); value = 108%
target = Activin receptor type-1B (ACVR1B, Homo sapiens, UniProt P36896); value = 96.5%
target = Dual specificity mitogen-activated protein kinase kinase 2 (MAP2K2, Homo sapiens, UniProt P36507); value = 85.1%
target = Glycogen synthase kinase-3 beta (GSK3B, Homo sapiens, UniProt P49841); value = 91.2%
target = Angiopoietin-1 receptor (TEK, Homo sapiens, UniProt Q02763); value = 91.2%
target = Fibroblast growth factor receptor 3 (FGFR3, Homo sapiens, UniProt P22607); value = 93.2%
target = Tyrosine-protein kinase FRK (FRK, Homo sapiens, UniProt P42685); value = 66.8%
target = Serine/threonine-protein kinase ULK3 (ULK3, Homo sapiens, UniProt Q6PHR2); value = 97.5%
target = Tyrosine-protein kinase JAK3 (JAK3, Homo sapiens, UniProt P52333); value = 98.3%
target = Mitogen-activated protein kinase kinase kinase 5 (MAP3K5, Homo sapiens, UniProt Q99683); value = 102%
target = Macrophage-stimulating protein receptor (MST1R, Homo sapiens, UniProt Q04912); value = 97.2%

Series 3 — method: RNA Bind-n-Seq; molecule type: RNA; medium: in vitro; tested at: 365 nM; baseline: no-protein control; direction: higher = stronger binding; quantity: RBNS enrichment (R)
Target: RNA binding protein fox-1 homolog 2, RRM domain, GST-SBP tag (RBFOX2, Homo sapiens, UniProt O43251-10, residues 100-194)
Setting: natural RNA segment, single round, ends assumed
Shared flanks, not repeated: GGGAGUUCUACAGUCCGACGAUC … UGGAAUUCUCGGGUGCCAA
Target sequence (chain): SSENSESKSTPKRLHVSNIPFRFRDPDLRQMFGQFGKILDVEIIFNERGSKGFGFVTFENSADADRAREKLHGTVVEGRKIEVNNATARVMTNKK
Strand = AGAUAAAAUAUAUAUCCAAAAUAAUUUUGUGAGUUAUUUUCCUUCUGGCAUUUAAUACCUACAUGAUUUGUGAGCUACUUCUGCCUUCUCCUUCUCUGCUCUUAAACCUG; value = 0.558
Strand = UAAAUGUCUAGGCUUCCAUUUAAAACUACACAAAUGACUUGGGAUCUUUUUAGCACUAAGGAAUUUGAUUUCAGCCUUCCAGCUGUUGCUGUGAGUUGUUCCAGACCUUU; value = 0.393
Strand = AAAAAGAGAAACCUUAUCUUUGCUUUGUGGUUCCUUUAAACACACUCACACACACUUGGUCAGAGAUGCUGUGCUUCUUGGAAGCAAGGACUCAAAGGCAAGGUGCACGC; value = 1.09
Strand = GAAGACUGCCUUUCCUGGUAGGCCUGCCAGACAGAGCGCCCUUUACAAGACACACCUCAAGCUUUACCAGCUCAAGCGUCUGUCCUUGGAGGCUCAGCAGAUUUAUUUAA; value = 0.207
Strand = AAAAAAAGAAAGAAAGAUGCUGCUCAUUUGCAUGCUCACUUACAUAUAUUUGCAUGUUCACUGACCCAGCCUGAGCUCUCCCCAGCCUCGUGGGUGGUGACUUUUCCUGC; value = 0.711
Strand = AGAAAUCUGAAAGCACCUCUGACAUUCCUUUUAUUAACUCACCUCUCAGUUGAAAGAUUUCUUCUUUGAAAGGUCAAGACCGUGAACUGAAAAAAGUGUUGGCCUUUUUG; value = 0.672
Strand = GUGUUAAUGCUUCUGAAGCAUCAGGAAGGUUGAAAGCCACUGCUCUAGAGCCAAGUGAGUGCAUGUCUAGGGUUCCCAUGUUUACAGUAAGGACCGGCUCAGGCACUGAC; value = 6.59
Strand = UAAAUCAUGCUAGCAGCCUUAAGAGGUAAAGCCAUUGGAGAGAAGUGUCAAGCAUGGGAGCUAAAAUGAGUAAUCUGUGUUACCACACUCUUAGUACUAUCAUUUUUUUU; value = 2.45

Series 4 — method: RNA Bind-n-Seq; molecule type: RNA; medium: in vitro; tested at: 200 nM; setting: whole 134-nt RNA, ends assumed; with: 150 mM KCl; baseline: input library; direction: higher = stronger binding; quantity: log2 enrichment
Target: Fragile X messenger ribonucleoprotein 1, C-terminal low-complexity region (Fmr1, Mus musculus, UniProt P35922)
Shared flanks, not repeated: GGGAGUUCUACAGUCCGACGAUC … UGGAAUUCUCGGGUGUCAAGG
Strand = CCUGUGCUACACAUCGUAUGUACCGAAUCGGGGCCCCCCGGGGCCCCCCGGCCCCCCGGGGAAAGUAUUAUGUUACGCCGUUCGGAUCUG; value = -1.07
Strand = ACCAUGCAGGUGGGCAUCAUUGGGAAGUGGGGCAAGGGGGGGAUAGGGAGGGGGGUAACACUUUGGGAACAGGUGGUCCCAGGUCGUUUC; value = 0.577
Strand = UGAAAAGAACUGCUCUCCAUGGAGAGAGUAACUCUGUCCUUAUUAUCGGACCCCGAGGAUCAGGAAAAACUAUGGUAAAAGCUGUUGAUU; value = -1.26
Strand = CUCAAGUCCUGUGCUACACAUCGUAUGUACCGAAUCGGCCGGGCCGGGCCGGGGAAAGUAUUAUGUUACGCCGUUCGGAUCUGCACUUCC; value = 0.0356
Strand = CAAGUCCUGUGCUACACAUCGUAUGUACCGAAUCGGGUUUGGGUUUGGGGUUUGGGAAAGUAUUAUGUUACGCCGUUCGGAUCUGCACUU; value = 0.901
Strand = CAAGUCCUGUGCUACACAUCGUAUGUACCGAAUCGGGUUUGGUUUGGGGUUUGGGAAAGUAUUAUGUUACGCCGUUCGGAUCUGCACUUC; value = 0.564
Strand = CAAGUCCUGUGCUACACAUCGUAUGUACCGAAUCAAAUUUAAACCCAAACCCAAAAAAGUAUUAUGUUACGCCGUUCGGAUCUGCACUUC; value = -0.144
Strand = CCUGUGCUACACAUCGUAUGUACCGAAUCGGGAAAAAAGGGGAAAAAAGGGGAAAAAAGGAAAGUAUUAUGUUACGCCGUUCGGAUCUGC; value = -0.52
